Experimental data collected from several papers.
Every numbered part comes from another study and shows a few of its results, in no order. Positions count from the first letter of the parent shown.

Block 1
Target: ABI1, truncated, D143A, DHFR fusion (Arabidopsis thaliana)
Technique: DHFR PCA, deep sequencing
Medium: yeast
Setting: methotrexate growth selection, single substitutions
Together with: (+)-ABA 200 µM
Relative to: wild-type fitted maximum
Reading: higher = stronger binding
Parent: PYL1, truncated, DHFR fusion (Arabidopsis thaliana); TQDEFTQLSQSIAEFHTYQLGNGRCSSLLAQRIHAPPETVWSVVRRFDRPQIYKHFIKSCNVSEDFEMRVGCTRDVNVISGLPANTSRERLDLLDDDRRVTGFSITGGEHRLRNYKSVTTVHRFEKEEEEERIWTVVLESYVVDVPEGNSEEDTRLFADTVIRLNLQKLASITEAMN
Substitution	relative binding score
F47N	-25.5%
E125K	109%
I12Y	67.1%
E174T	89.7%
K126P	110%
F56M	93.9%
V121M	55.3%
V118Y	56.4%
L166D	-0.965%
S63E	101%
Y141V	-5.42%
N165E	2.32%
D65P	108%
T1K	88.9%
D75M	106%
V78A	70.2%

Block 2
Target: Histone acetyltransferase KAT6A, both winged helices, GST fusion (KAT6A, Homo sapiens, UniProt Q92794, residues 1-181)
Technique: protein binding microarray
Molecule type: double-stranded DNA, one strand shown
Medium: in vitro
Tested at: not given
Setting: 8-mer, flanks averaged, mean of 2 arrays, mostly near background
Relative to: not given
Reading: higher = stronger binding
Residues (chain): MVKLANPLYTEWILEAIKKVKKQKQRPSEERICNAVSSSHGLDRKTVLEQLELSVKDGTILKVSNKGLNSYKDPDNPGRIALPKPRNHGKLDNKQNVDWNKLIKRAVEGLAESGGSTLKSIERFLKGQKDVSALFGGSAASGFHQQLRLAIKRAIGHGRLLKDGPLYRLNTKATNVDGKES
Strand	E-score
GCATTACC	0.044
GCCCGTCC	0.213
ACCAAAAT	-0.0559
AACAGATC	-0.00945
CTCGAGTC	-0.0572
CGTGAAAG	0.015
CAGCGATG	0.00517
AGTTATAA	-0.0999
AAAACCAT	-0.0577
AGTTTGGG	-0.181
CTTTGGGA	-0.242
AATGTGAG	-0.207
ATCGTAAA	0.0107
GACTTCCC	-0.065
AATGCGGG	0.137
GTTATGTA	-0.0916
AAGACGCC	0.16
AAGATCTG	-0.0586
AAAGTATC	0.0909
AAACAATG	-0.0936
CATTGTGG	-0.153
CTGAACAA	0.076
CGCGATTC	0.278
CGACATAC	0.183
GCCGGTGA	0.157

Block 3
Target: XBP1, bZIP domain (human)
Technique: DHFR protein complementation
Medium: yeast
Setting: single substitutions, most at no-binding floor
Relative to: wild-type JUN-FOS pair
Reading: higher = stronger binding
Parent: JUN, bZIP domain (human); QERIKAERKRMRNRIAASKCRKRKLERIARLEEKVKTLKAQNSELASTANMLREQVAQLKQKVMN; partner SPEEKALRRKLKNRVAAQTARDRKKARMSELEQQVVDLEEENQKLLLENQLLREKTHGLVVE
Substitution	binding fitness [natural log]
S43Y	-0.804
L45R	-1.46
L38S	-1.51
A46W	-1.29
L45G	-1.51
E54N	-1.27
L52Q	-1.23
L38I	-1.2
N42K	-1.31
S47K	-0.354
E32Q	-1.26
V56G	-1.23
T48P	-1.49
A46M	-0.595
N42D	-1.49
N42E	-1.44
K39G	-1.46
K39S	-1.16
S47P	-1.51
I28G	-1.38
A49F	-1.2
N42C	-1.39
T37Q	-0.37

Block 4
Target: CCND2, cyclin fold, Cln2 fusion (human)
Technique: yeast growth competition, sequencing
Medium: yeast
Setting: weak parent motif
Relative to: not given
Reading: higher = stronger binding
Parent: MICAL3 docking peptide (human); LQLRRQLSFSEDS
Substitution	normalised enrichment score
D12Y	0.156
Q2R	-0.372
Q2N	0.082
Q2F	0.2
S8P	0.0973
F9S	0.118
R5T	0.127
L3V	0.753
Q2P	0.648
R4A	0.282
L7H	0.253
S8A	-0.243
Q2A	0.0161
L7S	-0.427
D12W	-0.0508
L7W	0.168
R4Q	0.103
F9G	0.278
L3A	1.33
S10K	0.356
D12M	0.692
D12R	0.0928
L3P	0.45
F9A	0.0299
L3W	-0.226

Block 5
Target: Sal-like protein 4, full length isoform B (SALL4, Homo sapiens, UniProt Q9UJQ4-2, residues 1-616)
Technique: universal PBM
Molecule type: double-stranded DNA, one strand shown
Medium: in vitro
Tested at: not given
Setting: 8-mer, flanks averaged, mean of replicates
Reading: higher = stronger binding
Residues (chain): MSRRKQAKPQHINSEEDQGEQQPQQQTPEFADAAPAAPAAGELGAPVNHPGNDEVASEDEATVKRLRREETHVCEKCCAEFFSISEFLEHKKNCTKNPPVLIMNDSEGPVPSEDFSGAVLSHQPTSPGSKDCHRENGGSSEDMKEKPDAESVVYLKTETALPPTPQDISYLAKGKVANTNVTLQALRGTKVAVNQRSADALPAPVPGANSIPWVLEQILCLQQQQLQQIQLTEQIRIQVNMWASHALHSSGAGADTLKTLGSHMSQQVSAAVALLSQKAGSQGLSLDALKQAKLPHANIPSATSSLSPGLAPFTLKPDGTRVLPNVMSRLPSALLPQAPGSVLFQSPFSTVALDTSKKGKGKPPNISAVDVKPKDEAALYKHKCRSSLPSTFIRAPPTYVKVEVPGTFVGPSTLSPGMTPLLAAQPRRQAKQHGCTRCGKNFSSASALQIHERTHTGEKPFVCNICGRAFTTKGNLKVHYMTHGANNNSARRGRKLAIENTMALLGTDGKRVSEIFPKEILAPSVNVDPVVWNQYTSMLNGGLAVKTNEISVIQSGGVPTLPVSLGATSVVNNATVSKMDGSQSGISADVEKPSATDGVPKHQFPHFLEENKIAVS
Strand	E-score
ACCGGCGT	-0.258
CTTAGCAA	-0.0421
CGGACAAA	-0.0037
ACTTGGTA	0.168
TCAAGAGA	0.0681
ATCTTAAC	0.196
AATCGTTA	0.189
ACCCCTTG	-0.196
CCTTTCTA	0.104
ACTAAGAC	-0.0142
ATCTGAGC	0.0593
ACCAGAAC	-0.142
GGCAAACC	-0.191
CAGGGTGG	-0.0708
AAACATGA	0.263
CCCGTCAG	-0.328
CGAAATCG	-0.0373
AAGCCTCT	-0.0223
AGGGCGTA	-0.043
CACGAAGC	-0.192
GAGACTCC	-0.136
CCAAGGCA	-0.18
CCATCGAA	-0.0332
GACTTTTA	0.024
AGGTGTGG	-0.243

Block 6
Target: Prothrombin, mature alpha-thrombin (F2, Homo sapiens, UniProt P00734)
Technique: aptamer microarray, sandwich
Molecule type: DNA with 2'F-ANA
Medium: in vitro
Tested at: 200 nM
Setting: whole 15-mer aptamer, many near background
Together with: Cy3 exosite-II aptamer, 400 nM
Reading: higher = stronger binding
Strand: GGTTGGTGTGGTTGG
Modification	mean fluorescence intensity
2'F-ANA at 1 3 4 5 7 8 10 13 14 15	49.9 a.u.
2'F-ANA at 1 2 7 11 14 15	53.1 a.u.
2'F-ANA at 1 5 7 9 13 14 15	56 a.u.
2'F-ANA at 3 4 5 6 10 12 13 15	53.1 a.u.
2'F-ANA at 2 3 4 13 14 15	267 a.u.
2'F-ANA at 2 5 7 8 10 13 14	47.2 a.u.
2'F-ANA at 2 7 9 10 11 14	83.8 a.u.
2'F-ANA at 1 2 3 9 10 13	63.3 a.u.
2'F-ANA at 1 3 6 9 10 12 13 14	84.6 a.u.
2'F-ANA at 4 7 13 15	222 a.u.
2'F-ANA at 1 2 3 4 7 9 11 12	269 a.u.
2'F-ANA at 1 2 3 4 6 9 10 12 15	74.6 a.u.
2'F-ANA at 2 3 4 7 10 11 14 15	186 a.u.
2'F-ANA at 1 3 7 8 12	708 a.u.
2'F-ANA at 1 2 7 12 15	338 a.u.
2'F-ANA at 1 2 3 4 5 7 11 12 14	47.2 a.u.
2'F-ANA at 5 6 7 8 9 11 13 14	45.9 a.u.
2'F-ANA at 3 6 9 11 12 13 14 15	567 a.u.

Other studies, line by line
Molecule	target	test	test system	setting	scale	endpoint	value
PhoQ, residues 284 288 289 292 302 303 TVTVVA	PhoP, residues 12 14 15 18 19 SEGLL (Escherichia coli, UniProt P23836)	Sort-seq, item: YFP reporter	E. coli	PhoQ-PhoP variant library, together with: 10 µM Mg2+	relative to: high Mg2+ state, higher = stronger signaling	fold induction	3.68

A few entries again (block 1):
Substitution	relative binding score
F47N	-25.5%
E125K	109%
I12Y	67.1%
E174T	89.7%
K126P	110%
F56M	93.9%
V121M	55.3%
V118Y	56.4%
L166D	-0.965%
S63E	101%
Y141V	-5.42%
N165E	2.32%
D65P	108%
T1K	88.9%
D75M	106%
V78A	70.2%
